Measurements from different studies.
ACVR2A: Activin receptor type-2A (ACVR2A, Homo sapiens, UniProt P27037)
TDP1: Tyrosyl-DNA phosphodiesterase 1 (TDP1, Homo sapiens, UniProt Q9NUW8)
Chain of UniProt Q9NUW8 (whole entry, looked up): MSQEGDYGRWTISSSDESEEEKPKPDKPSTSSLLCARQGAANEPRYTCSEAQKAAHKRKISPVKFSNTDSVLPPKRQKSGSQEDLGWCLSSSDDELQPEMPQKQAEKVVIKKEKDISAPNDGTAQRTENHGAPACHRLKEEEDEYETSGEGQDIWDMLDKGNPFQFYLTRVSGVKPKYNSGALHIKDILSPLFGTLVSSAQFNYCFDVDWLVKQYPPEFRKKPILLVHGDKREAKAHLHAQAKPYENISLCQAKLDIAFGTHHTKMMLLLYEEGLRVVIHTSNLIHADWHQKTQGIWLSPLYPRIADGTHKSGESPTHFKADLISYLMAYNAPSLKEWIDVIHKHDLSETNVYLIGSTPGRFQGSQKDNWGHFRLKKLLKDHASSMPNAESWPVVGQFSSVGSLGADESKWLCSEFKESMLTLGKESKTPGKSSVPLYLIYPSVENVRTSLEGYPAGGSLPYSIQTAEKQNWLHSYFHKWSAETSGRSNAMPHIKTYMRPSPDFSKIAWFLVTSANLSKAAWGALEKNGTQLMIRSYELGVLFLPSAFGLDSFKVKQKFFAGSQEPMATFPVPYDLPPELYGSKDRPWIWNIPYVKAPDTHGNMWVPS

Nc1ncc2c(n1)-c1c([nH]c3ccc(C4=CCOCC4)cc13)CCC2  remaining binding (ACVR2A; binding, competition with immobilised ligand; 1 µM): 98%
O=C(O)c1ccc(Nc2c(-c3ccc(CON=Cc4ccc(N5CCCC5=O)cc4)cc3)nc3cc(-c4ccccc4)ccn23)cc1  inhibition (TDP1; enzyme activity, inhibitor; 100 µM): 90.7%
O=C(Cc1ccc(OCc2ccccc2)cc1)NC1(C(=O)O)CCN(C(=O)c2ccc(-c3cccc(Cl)c3)cc2)CC1  activity vs control (ACVR2A; enzyme activity, inhibitor; 10 µM): 95%
COc1cc(Nc2nccc(-c3cnn4nc(OC)ccc34)n2)cc(C(F)(F)F)c1  remaining binding (ACVR2A; binding, competition with immobilised ligand; 1 µM): 76%
CNC1C[S+]2CC[S+]3CC[S+](C1)[Ru-4]321([N]=C=S)[n]2c3ccc(OC)cc3c3c4c(c5cc(F)c[n+]1c5c32)C(=O)NC4=O (stereo not drawn)  remaining binding (ACVR2A; KinomeScan; 0.1 µM; baseline: untreated): 100%
CNC(=O)C1CCN(c2cc(C)c(F)cc2NC(=O)c2ccc(-c3cc(O)ccc3C)c(C)c2)CC1  remaining binding (ACVR2A; binding, competition with immobilised ligand; 1 µM): 100%
CN1CCN(Cc2ccc(-c3ccc(CO[C@H]4CCC[C@@H]4NC(=O)c4cc(-c5cnn(C)c5)cnc4N)cc3)cc2)CC1  inhibition (ACVR2A; enzyme activity, inhibitor; 0.1 µM): 4%
C=CC(=O)N1CCCC(n2c(=O)c3ncccc3n(Cc3ccc(Oc4ccccc4)cc3)c2=O)C1 (stereo not drawn)  remaining binding (ACVR2A; cell-free assay, competition with immobilised ligand; 1 µM): 75%
C=CC(=O)N1Cc2nc(-c3cc(-c4cc(Cl)cnc4Cl)c(F)cc3F)n(-c3ccncn3)c2C1  inhibition (ACVR2A; cell-free assay; 1 µM): -1%
Cc1ccc(-c2c(/C=C(\C#N)C(=O)NC(C)C)n(CCCO)c3ncnc(N)c23)cc1  remaining binding (ACVR2A; cell-free assay, competition with immobilised ligand; 1 µM): 93%
CN1CC[C@@H](COc2cnc(C#N)cc2-c2ccn3nc(NC(=O)C4CC4)cc3c2)C1  inhibition (ACVR2A; enzyme activity, inhibitor; 1 µM): -4%
CNC(=O)C[C@H](Cc1ccc(C#N)cc1)NC(=O)c1cc(-c2ccc(CN[C@H](C)c3ccc(C)cc3)o2)ccc1Cl  activity vs control (ACVR2A; enzyme activity, inhibitor; 1 µM): 107%
C=CC(=O)N1CCc2ccc(-n3c(=O)ccc4cnc5ccc(-c6cnn(C)c6)cc5c43)cc21  remaining binding (ACVR2A; KINOMEscan; 1 µM; baseline: DMSO control): 81%
O=C(O)c1ccc(Nc2c(-c3ccccc3)nc3ccc(CON=Cc4cc(Br)c(Br)o4)cn23)cc1  inhibition (TDP1; enzyme activity, inhibitor; 100 µM, unpurified compound): 37%
Cc1cnc2nc1Nc1cccc(c1)COC/C=C/COCc1cc(ccc1OCCN1CCOCC1)N2  remaining binding (ACVR2A; binding; 0.1 µM): 93%
CC(C)=CC1OC(C)(C)C2C=C3C(=O)C(Cl)=CC(O)C3C3C(O)C4OC4C(=O)C132 (stereo not drawn)  remaining binding (ACVR2A; cell-free assay, competition with immobilised ligand; 10 µM): 99%
CCN1CCN(Cc2ccc(C(=O)Nc3ccc(C)c(NCc4cnc5[nH]ccc5c4OC)c3)cc2C(F)(F)F)CC1  remaining binding (ACVR2A; binding, competition with immobilised ligand; 1 µM): 100%
COc1c(Cl)cccc1Nc1c(-c2ccncc2C#C[C@@]2(C)CCCN2C(=O)/C=C/CN(C)C)[nH]c2c1C(=O)NCC2  remaining binding (ACVR2A; cell-free assay, competition with immobilised ligand; 3 µM): 100%

For quick reference, copied from above:
CNC(=O)C[C@H](Cc1ccc(C#N)cc1)NC(=O)c1cc(-c2ccc(CN[C@H](C)c3ccc(C)cc3)o2)ccc1Cl  activity vs control (ACVR2A; enzyme activity, inhibitor; 1 µM): 107%
O=C(O)c1ccc(Nc2c(-c3ccccc3)nc3ccc(CON=Cc4cc(Br)c(Br)o4)cn23)cc1  inhibition (TDP1; enzyme activity, inhibitor; 100 µM, unpurified compound): 37%
C=CC(=O)N1CCCC(n2c(=O)c3ncccc3n(Cc3ccc(Oc4ccccc4)cc3)c2=O)C1 (stereo not drawn)  remaining binding (ACVR2A; cell-free assay, competition with immobilised ligand; 1 µM): 75%
